# Measured values from different studies.
# Each line is one published result; not all experiments were run side by side. ± gives the spread as reported.
# Target: Cholinesterase (BCHE, Equus caballus, UniProt P81908)
# Chain of UniProt P81908 (whole entry, looked up): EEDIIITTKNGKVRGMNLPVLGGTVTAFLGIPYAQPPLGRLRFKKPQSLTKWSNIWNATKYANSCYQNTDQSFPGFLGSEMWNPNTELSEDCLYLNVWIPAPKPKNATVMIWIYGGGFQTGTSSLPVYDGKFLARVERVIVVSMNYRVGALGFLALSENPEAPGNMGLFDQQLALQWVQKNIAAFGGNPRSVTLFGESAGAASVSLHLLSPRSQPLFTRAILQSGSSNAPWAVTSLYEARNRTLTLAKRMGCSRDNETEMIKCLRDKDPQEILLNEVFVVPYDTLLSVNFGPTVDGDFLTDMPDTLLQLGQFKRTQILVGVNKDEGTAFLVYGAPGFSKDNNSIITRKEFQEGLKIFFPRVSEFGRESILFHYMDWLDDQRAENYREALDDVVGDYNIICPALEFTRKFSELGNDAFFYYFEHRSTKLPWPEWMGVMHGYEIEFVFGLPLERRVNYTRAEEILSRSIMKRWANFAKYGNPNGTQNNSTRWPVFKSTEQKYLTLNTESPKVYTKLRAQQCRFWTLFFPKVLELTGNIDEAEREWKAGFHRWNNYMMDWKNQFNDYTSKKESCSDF
SMILES,assay,test system,setting,inhibition
COC(=O)C1=CO[C@@H](OC(C)=O)[C@@H]2C(Cn3cc(CCO)nn3)=CC[C@H]12,inhibitor,horse serum BuChE,10000 µM,35.5 ± 0.59%
Cc1cccnc1Nc1c2c(nc3ccccc13)CCCC2,"enzyme activity, inhibitor",,100 µM,62.4%
O=C(/C=C/c1ccc(O)cc1)OC[C@H]1O[C@@H](Oc2c(-c3ccc(O)cc3)oc3cc(O)cc(O)c3c2=O)[C@H](O)[C@@H](O)[C@@H]1O,"enzyme activity, inhibitor, Ellman",,100 µg/mL,16.8%
COc1ccc(Nc2c3c(nc4ccccc24)CCC(C)C3)nc1 (centres unmarked),"enzyme activity, inhibitor",,100 µM,-55.1%
CCCCc1nc2ccc(/N=N/c3ccc(Br)cc3)cc2c(-c2ccccc2)c1I,"enzyme activity, inhibitor",,100 µM,32.2%
c1ccc2c(Nc3c4c(nc5ccccc35)CCCC4)cccc2c1,"enzyme activity, inhibitor",,50 µM,60.1%
C=CCCCCCCCCCOCc1cn(CC2=CC[C@@H]3C(C(=O)OC)=CO[C@@H](O)[C@H]23)nn1,inhibitor,horse serum BuChE,10000 µM,31.51 ± 0.14%
Cc1ccnc(Nc2c3c(nc4ccc(Cl)cc24)CCCC3)c1,"enzyme activity, inhibitor",,50 µM,53.7%
COC(=O)C1=CO[C@@H](OC(C)=O)[C@@H]2C(Cn3cc(COC(c4ccccc4)(c4ccccc4)c4ccccc4)nn3)=CC[C@H]12,inhibitor,horse serum BuChE,10000 µM,1.21 ± 0.18%
COc1ccc(Nc2c3c(nc4cc(C)ccc24)CCCC3)nc1,"enzyme activity, inhibitor",,100 µM,-39.7%
COC(=O)C1=CO[C@@H](O)[C@@H]2C(Cn3cc(C4(O)CCCC4)nn3)=CC[C@H]12,inhibitor,horse serum BuChE,10000 µM,27.26 ± 0.27%
c1ccc(Nc2c3c(nc4ccccc24)CCCC3)cc1,"enzyme activity, inhibitor",,100 µM,-31.1%
Ic1ccccc1/N=N/c1ccc2nc(-c3ccccc3)c(I)c(-c3ccccc3)c2c1,"enzyme activity, inhibitor",,100 µM,no inhibition
COC(=O)C1=CO[C@@H](OC(C)=O)[C@@H]2C(Cn3cc(COCc4ccc(OC)cc4)nn3)=CC[C@H]12,inhibitor,horse serum BuChE,10000 µM,42.91 ± 0.2%
O=S(=O)(F)CCc1cn(-c2ccc(Cl)c(Cl)c2)nn1,Ellman,horse,20 µM,88.8%
O=C1Nc2ccccc2/C1=N/NC(=O)c1cc(-c2ccc3c4c(cccc24)CC3)n[nH]1,,,10 µM,< 0%
CCCCc1nc2ccc(/N=N/c3ccc(Cl)cc3)cc2c(-c2ccccc2)c1I,"enzyme activity, inhibitor",,100 µM,52.3%
COC(=O)C1=CO[C@@H](OC(C)=O)[C@@H]2C(Cn3cc(CCCN4C(=O)c5ccccc5C4=O)nn3)=CC[C@H]12,inhibitor,horse serum BuChE,10000 µM,71.55 ± 0.22%
O=C(CCn1cnc2sc3c(c2c1=O)CCCC3)NCCc1nc2ccccc2[nH]1,"inhibitor, Ellman method",,10 µM,5.71 ± 2.14%
Clc1ccc(/N=N/c2ccc3nc(-c4ccccc4)c(I)c(-c4ccccc4)c3c2)cc1,"enzyme activity, inhibitor",,100 µM,48.7%

# For quick reference, copied from above:
SMILES,assay,test system,setting,inhibition
c1ccc2c(Nc3c4c(nc5ccccc35)CCCC4)cccc2c1,"enzyme activity, inhibitor",,50 µM,60.1%
COc1ccc(Nc2c3c(nc4cc(C)ccc24)CCCC3)nc1,"enzyme activity, inhibitor",,100 µM,-39.7%
